Earlier results, collected from citations in different studies.
Compare with care: the assays were run in different laboratories. Several values in a cell are separate wells, animals, samples, runs or records. ± marks the error that the study gave. ≈ marks a conversion by molar mass, not a printed value.

With O=C(O)C(F)(OC(F)(F)C(F)(F)C(F)(F)F)C(F)(F)F (stereo not shown) the pKa was 2.84 (potentiometry).
For CC(=O)OC1C(=O)C2(C)C(O)CC3OCC3(OC(C)=O)C2C(OC(=O)c2cccc(OC(F)(F)F)c2)C2(O)CC(OC(=O)C(O)C(C=C(C)C)NC(=O)OC(C)(C)C)C(C)=C1C2(C)C (stereo not shown), the IC50 was 0.51 nM (LCC6-WT; cytotoxicity).
The Km of c1ccc2cc3c(ccc4ccccc43)cc2c1 is reported as 0.09 µM (substrate; human liver microsomes).
For CN[C@H](CC(C)C)C(=O)N[C@H]1C(=O)N[C@@H](CC(N)=O)C(=O)N[C@H]2C(=O)N[C@H]3C(=O)N[C@H](C(=O)N[C@H](C(=O)NCCCNC(=N)N)c4cc(O)cc(O)c4-c4cc3ccc4O)[C@H](O)c3ccc(c(Cl)c3)Oc3cc2cc(c3O[C@@H]2O[C@H](CO)[C@@H](O)[C@H](O)[C@H]2O[C@H]2C[C@](C)(NCc3ccc(-c4ccc(Cl)cc4)cc3)[C@H](O)[C@H](C)O2)Oc2ccc(cc2Cl)[C@H]1O, the MTD was ≥ 50 mg/kg (mouse).
The plasma half-life of CC[C@H](C)[C@@H]1NC(=O)[C@@H]2CSSC[C@@H](C(=O)N[C@@H](CO)C(=O)N[C@@H](CC(C)C)C(=O)N[C@@H](CO)C(=O)N[C@H](C(=O)N[C@@H](C)C(=O)N[C@@H](CCC(N)=O)C(=O)N[C@@H](CCC(=O)O)C(=O)O)C(C)C)NC(=O)[C@H](CCCNC(=N)N)NC(=O)[C@H](CCCNC(=N)N)NC(=O)[C@H](CCCCN)NC(=O)[C@H](CCCNC(=N)N)NC(=O)[C@H](CSSC[C@H](NC(=O)[C@H](CO)NC(=O)[C@H](C)NC(=O)CNC(=O)[C@@H](NC(=O)[C@@H]3CCCN3C(=O)[C@H](CCCNC(=N)N)NC(=O)[C@H](CC(C)C)NC(=O)[C@H](CO)NC(=O)[C@@H](NC(=O)CNC(=O)[C@H](CCCNC(=N)N)NC(=O)[C@H](Cc3c[nH]c4ccccc34)NC(=O)[C@H](Cc3ccccc3)NC(=O)[C@@H]3CCCN3C(=O)[C@@H](NC(=O)[C@@H](N)CCSC)[C@@H](C)O)C(C)C)[C@@H](C)CC)C(=O)N[C@@H](CCCNC(=N)N)C(=O)N[C@@H](CC(=O)O)C(=O)N[C@@H](CC(=O)O)C(=O)N[C@@H](CO)C(=O)N[C@@H](CCC(=O)O)C(=O)N2)NC(=O)[C@H](CC(C)C)NC(=O)[C@H](CCCNC(=N)N)NC(=O)[C@H]([C@@H](C)O)NC1=O is reported as 10 to 15 min (mouse, plasma).
NCC[C@H](N)C(=O)O gave a pKa of 9.95.
Under “aquation rate constant”, Cc1ccc(C(C)C)cc1.F[P-](F)(F)(F)(F)F.[Cl][Os+]1[N]2C=CC=c3ccc4c(c32)[N]1C=CC=4 is recorded as 0.073 h⁻¹ (45 °C).
The plasma concentration of C[C@]12C=CC(=O)C=C1[C@@H](CSC[C@H](N)C(=O)O)CC1C2CC[C@]2(C)C(=O)CCC12 (stereo partly shown) is reported as 22 ± 2.9 nM (women taking exemestane, plasma; dose not given).
The plasma concentration of CC[C@H](C)[C@H](NC(=O)[C@H](CCCN)NC(=O)[C@H](CCCNC(=N)N)NC(=O)[C@@H]1CCCN1C(=O)[C@@H]1CCCN1C(=O)[C@H](CCCNC(=N)N)NC(=O)[C@@H]1CCCN1C(=O)[C@H](CCCNC(=N)N)NC(=O)[C@@H]1CCCN1C(=O)[C@H](CC(C)C)NC(=O)[C@H](Cc1ccc(O)cc1)NC(=O)[C@@H]1CCCN1C(=O)[C@@H]1CCCN1C(=O)[C@H](CCCCN)NC(=O)[C@H](CC(=O)O)NC(=O)[C@@H](N)C(C)C)C(=O)N[C@@H](Cc1ccc(O)cc1)C(=O)N[C@@H](CC(N)=O)C(=O)N[C@@H](CCCN)C(N)=O is reported as 4020 ng/mL and 3910 ng/mL (sandwich ELISA; plasma; ip, 5 mg/kg, 10 min).
The IC50 of COC(=O)OC1C(=O)C2(C)C(O)CC3OCC3(OC(C)=O)C2C(OC(=O)c2cccc(OC(F)F)c2)C2(O)CC(OC(=O)C(O)C(C=C(C)C)NC(=O)OC(C)(C)C)C(C)=C1C2(C)C (stereo not shown) is reported as 0.67 nM (LCC6-WT; cytotoxicity).
Cc1ccc(C(C)C)cc1.O=C(N=P(c1ccccc1)(c1ccccc1)c1ccccc1)c1ccccn1.[Cl-].[Cl][Ru+] has a half-life of 60 h (water).
For CCc1nn(C)c2nc(-c3ccc(C(=O)O)cc3)nc(NCc3ccccc3)c12, the half-life was 0.9 h (mouse).
With Brc1ccc(Oc2ccc(Br)cc2Br)c(Br)c1 the log Kow was 6.81.
CC[C@H](C)[C@H](NC(=O)CNC(=O)[C@H](CCCCN)NC(=O)[C@H](CCCCN)NC(=O)[C@H](CCC(N)=O)NC(=O)[C@H](CC(C)C)NC(=O)[C@H](CCCCN)NC(=O)[C@H](CC(C)C)NC(=O)[C@H](CC(C)C)NC(=O)[C@H](CCCCN)NC(=O)[C@H](CCCCN)NC(=O)[C@H](CC(C)C)NC(=O)[C@H](CC(C)C)NC(=O)[C@H](CCCCN)NC(=O)[C@H](CCSC)NC(=O)[C@H](C)NC(=O)[C@H](CCCCN)NC(=O)[C@@H]1CCCN1C(=O)[C@H](C)N)C(=O)O — result for “highest non-haemolytic concentration”: ≤ 200 µM (human erythrocytes; up to).
CCCCCCCCCCCCNC=C1N=C(c2ccc[nH]2)C=C1OC has an IC50 of 6100 nM (HepG2; cytotoxicity).
Clc1ccc(C(c2ccc(Cl)cc2)C(Cl)(Cl)Cl)cc1 gave a water solubility of 0.025 µg/mL (≈ 0.0705 µM) (25 °C).
The AUC(0-24h) of C=C/C=C/C[C@@H](C)[C@@H](O)[C@H]1C(=O)N[C@@H](CC)C(=O)N(C)CC(=O)N(C)[C@@H](CC(C)C)C(=O)N[C@@H](C(C)C)C(=O)N(C)[C@@H](CC(C)C)C(=O)N[C@@H](C)C(=O)N[C@H](C)C(=O)N(C)[C@@H](CC(C)C)C(=O)N(C)[C@@H](CC(C)C)C(=O)N(C)[C@@H](C(C)C)C(=O)N1C is reported as 866 ng·h/mL (human patients; 23.7 mg twice daily).
Clc1ccc(C(c2ccc(Cl)cc2)C(Cl)Cl)cc1 gave a log Kow of 6.02.
Under “maximum tolerated dose”, COc1nc(-c2cc(C)c(NC(C)c3ccc(F)cc3)nn2)ccc1-n1cnc(C)c1 (stereo not shown) is recorded as 100 mg/kg/day (mouse).

For quick reference, copied from above:
The plasma half-life of CC[C@H](C)[C@@H]1NC(=O)[C@@H]2CSSC[C@@H](C(=O)N[C@@H](CO)C(=O)N[C@@H](CC(C)C)C(=O)N[C@@H](CO)C(=O)N[C@H](C(=O)N[C@@H](C)C(=O)N[C@@H](CCC(N)=O)C(=O)N[C@@H](CCC(=O)O)C(=O)O)C(C)C)NC(=O)[C@H](CCCNC(=N)N)NC(=O)[C@H](CCCNC(=N)N)NC(=O)[C@H](CCCCN)NC(=O)[C@H](CCCNC(=N)N)NC(=O)[C@H](CSSC[C@H](NC(=O)[C@H](CO)NC(=O)[C@H](C)NC(=O)CNC(=O)[C@@H](NC(=O)[C@@H]3CCCN3C(=O)[C@H](CCCNC(=N)N)NC(=O)[C@H](CC(C)C)NC(=O)[C@H](CO)NC(=O)[C@@H](NC(=O)CNC(=O)[C@H](CCCNC(=N)N)NC(=O)[C@H](Cc3c[nH]c4ccccc34)NC(=O)[C@H](Cc3ccccc3)NC(=O)[C@@H]3CCCN3C(=O)[C@@H](NC(=O)[C@@H](N)CCSC)[C@@H](C)O)C(C)C)[C@@H](C)CC)C(=O)N[C@@H](CCCNC(=N)N)C(=O)N[C@@H](CC(=O)O)C(=O)N[C@@H](CC(=O)O)C(=O)N[C@@H](CO)C(=O)N[C@@H](CCC(=O)O)C(=O)N2)NC(=O)[C@H](CC(C)C)NC(=O)[C@H](CCCNC(=N)N)NC(=O)[C@H]([C@@H](C)O)NC1=O is reported as 10 to 15 min (mouse, plasma).
